Assay results of several laboratories.
Every numbered part comes from another study and shows a few of its results, in no order.

Sample 1 — method: protein binding microarray; form: double-stranded DNA, one strand shown; matrix: in vitro; tested at: not given; baseline: not given; reading: higher = stronger binding; quantity: E-score
Target: Histone acetyltransferase KAT6A, winged helix 2, GST fusion (KAT6A, Homo sapiens, UniProt Q92794, residues 85-181)
Notes: 8-mer, flanks averaged, mean of 2 arrays, mostly near background
Target sequence (chain): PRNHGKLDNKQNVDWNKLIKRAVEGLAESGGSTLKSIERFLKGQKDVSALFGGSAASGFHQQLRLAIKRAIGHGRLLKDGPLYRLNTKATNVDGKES
AGAGCATG: 0.0275
AGAACAGA: 0.0992
ATAGAGTC: -0.235
ACGCCCCA: 0.11
AAATCGTG: 0.124
ACTAACTC: -0.0705

Sample 2 — method: universal PBM; form: double-stranded DNA, one strand shown; matrix: in vitro; tested at: 600 nM; reading: higher = stronger binding; quantity: E-score
Target: Sal-like protein 4, full length isoform A (SALL4, Homo sapiens, UniProt Q9UJQ4, residues 1-1053)
Sequence of UniProt Q9UJQ4 (whole entry, looked up): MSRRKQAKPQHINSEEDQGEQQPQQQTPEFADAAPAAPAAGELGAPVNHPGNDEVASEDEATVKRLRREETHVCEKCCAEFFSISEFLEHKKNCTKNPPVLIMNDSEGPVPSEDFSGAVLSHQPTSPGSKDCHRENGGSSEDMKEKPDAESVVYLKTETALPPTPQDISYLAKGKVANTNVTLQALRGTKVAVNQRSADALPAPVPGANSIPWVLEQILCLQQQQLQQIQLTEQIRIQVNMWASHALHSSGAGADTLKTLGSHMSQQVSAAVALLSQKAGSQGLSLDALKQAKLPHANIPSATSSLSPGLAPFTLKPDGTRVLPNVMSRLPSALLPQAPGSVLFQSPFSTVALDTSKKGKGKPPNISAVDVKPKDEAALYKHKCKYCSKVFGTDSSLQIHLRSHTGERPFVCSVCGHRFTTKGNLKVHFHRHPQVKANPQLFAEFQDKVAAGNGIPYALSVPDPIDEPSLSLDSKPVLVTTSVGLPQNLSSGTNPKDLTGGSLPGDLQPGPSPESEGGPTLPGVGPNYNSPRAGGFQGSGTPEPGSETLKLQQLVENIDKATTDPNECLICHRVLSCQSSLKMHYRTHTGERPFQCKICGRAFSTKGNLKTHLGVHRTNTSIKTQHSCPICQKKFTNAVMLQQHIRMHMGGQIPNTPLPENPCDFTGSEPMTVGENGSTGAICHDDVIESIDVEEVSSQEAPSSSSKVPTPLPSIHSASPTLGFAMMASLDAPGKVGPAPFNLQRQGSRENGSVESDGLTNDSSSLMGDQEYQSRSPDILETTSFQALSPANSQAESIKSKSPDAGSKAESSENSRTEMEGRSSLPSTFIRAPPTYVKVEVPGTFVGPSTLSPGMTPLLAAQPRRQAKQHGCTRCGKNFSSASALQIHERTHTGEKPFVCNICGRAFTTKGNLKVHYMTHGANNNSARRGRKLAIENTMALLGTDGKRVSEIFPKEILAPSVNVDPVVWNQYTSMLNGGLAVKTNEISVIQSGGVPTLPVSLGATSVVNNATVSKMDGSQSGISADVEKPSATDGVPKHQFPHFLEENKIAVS
Notes: 8-mer, flanks averaged, mean of replicates
ATGAAAAT: 0.368
CCCAGGCA: -0.135
AGGAGGGA: -0.194

Sample 3 — method: protein-binding microarray; form: double-stranded DNA, one strand shown; matrix: in vitro; tested at: 2540 nM top; notes: 60-bp whole probe; with: salmon DNA 0.4 mg/ml; baseline: random background probes; reading: higher = stronger binding; quantity: fitted relative affinity
Target: Interferon regulatory factor 3, full length, phosphomimetic (IRF3, Homo sapiens, UniProt Q14653, residues 1-427, S386D/S396D/S398D/S402D/T404D/S405D)
Sequence of UniProt Q14653 (whole entry, unmodified, looked up): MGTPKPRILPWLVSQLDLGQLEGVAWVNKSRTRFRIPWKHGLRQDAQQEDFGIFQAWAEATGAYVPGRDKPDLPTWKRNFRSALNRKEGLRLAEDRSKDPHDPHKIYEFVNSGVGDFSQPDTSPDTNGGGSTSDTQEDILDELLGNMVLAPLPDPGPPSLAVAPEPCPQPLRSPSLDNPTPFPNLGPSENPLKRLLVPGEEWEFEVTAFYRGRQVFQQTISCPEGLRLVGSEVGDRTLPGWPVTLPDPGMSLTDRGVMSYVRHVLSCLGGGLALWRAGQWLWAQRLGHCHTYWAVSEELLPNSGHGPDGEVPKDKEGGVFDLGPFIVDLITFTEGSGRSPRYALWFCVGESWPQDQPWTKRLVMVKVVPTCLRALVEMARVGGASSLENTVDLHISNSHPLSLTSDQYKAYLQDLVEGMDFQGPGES
GCCTAGCACGACGATATCGGGACAGGAGACGTGCTAGTCTTGATTCGCTTGACGCTGCTG: 0.27 z-score
GCCTAGCACAGACAAGCATTTGGTGATGCGTGCTAGGTCTTGATTCGCTTGACGCTGCTG: -0.704 z-score
GCCTAGCACTTAGGGCTGCTACTGCTTTAGTGCTAGGTCTTGATTCGCTTGACGCTGCTG: -1.24 z-score

Other studies, line by line
PhoQ, residues 284 288 289 292 302 303 SSLVEF — fold induction (PhoP, residues 12 14 15 18 19 TPWLV (Escherichia coli, UniProt P23836); Sort-seq, measured: YFP reporter; E. coli; PhoQ-PhoP variant library, with: 10 µM Mg2+; baseline: high Mg2+ state, higher = stronger signaling): 1.69
